Published values of several laboratories.
Lines come from different studies, so protocols differ. “And” joins repeats or separate records; there may be more than shown. Numbers after ± are the reported error.
uncharacterized protein: uncharacterized protein (Anopheles coluzzii, UniProt A0A6E8VQK1)
CCKAR: Cholecystokinin receptor type A (CCKAR, Homo sapiens, UniProt P32238)
UniProt P32238, sequence (whole entry, looked up): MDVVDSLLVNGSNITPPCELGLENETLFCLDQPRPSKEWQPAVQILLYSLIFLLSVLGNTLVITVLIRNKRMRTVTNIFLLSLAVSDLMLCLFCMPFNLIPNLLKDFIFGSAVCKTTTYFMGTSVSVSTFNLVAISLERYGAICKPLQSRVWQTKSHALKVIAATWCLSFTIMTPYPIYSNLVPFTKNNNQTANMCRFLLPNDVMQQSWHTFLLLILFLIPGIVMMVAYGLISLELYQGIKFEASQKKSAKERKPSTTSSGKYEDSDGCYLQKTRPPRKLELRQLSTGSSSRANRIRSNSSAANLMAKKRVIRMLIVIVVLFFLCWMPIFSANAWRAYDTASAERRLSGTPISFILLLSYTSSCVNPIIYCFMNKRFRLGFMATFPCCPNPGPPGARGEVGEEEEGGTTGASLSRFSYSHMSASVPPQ
UniProt P51170, sequence (whole entry, looked up): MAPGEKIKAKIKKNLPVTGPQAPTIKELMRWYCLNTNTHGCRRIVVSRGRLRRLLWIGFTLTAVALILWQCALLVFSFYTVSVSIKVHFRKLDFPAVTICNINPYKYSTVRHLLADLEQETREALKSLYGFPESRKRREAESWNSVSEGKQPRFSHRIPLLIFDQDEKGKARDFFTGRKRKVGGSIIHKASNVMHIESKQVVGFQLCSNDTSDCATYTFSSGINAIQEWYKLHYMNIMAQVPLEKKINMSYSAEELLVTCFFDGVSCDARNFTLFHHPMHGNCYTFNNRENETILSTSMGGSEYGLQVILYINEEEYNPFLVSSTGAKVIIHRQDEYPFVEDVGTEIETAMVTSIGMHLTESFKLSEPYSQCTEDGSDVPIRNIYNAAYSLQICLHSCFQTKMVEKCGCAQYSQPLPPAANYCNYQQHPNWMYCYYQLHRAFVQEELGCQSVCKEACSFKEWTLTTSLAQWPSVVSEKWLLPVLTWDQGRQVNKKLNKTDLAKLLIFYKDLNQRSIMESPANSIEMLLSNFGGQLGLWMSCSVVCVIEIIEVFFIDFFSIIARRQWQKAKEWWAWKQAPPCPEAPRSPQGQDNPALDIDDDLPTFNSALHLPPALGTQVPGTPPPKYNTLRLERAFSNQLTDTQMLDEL
UniProt P29376, sequence (whole entry, looked up): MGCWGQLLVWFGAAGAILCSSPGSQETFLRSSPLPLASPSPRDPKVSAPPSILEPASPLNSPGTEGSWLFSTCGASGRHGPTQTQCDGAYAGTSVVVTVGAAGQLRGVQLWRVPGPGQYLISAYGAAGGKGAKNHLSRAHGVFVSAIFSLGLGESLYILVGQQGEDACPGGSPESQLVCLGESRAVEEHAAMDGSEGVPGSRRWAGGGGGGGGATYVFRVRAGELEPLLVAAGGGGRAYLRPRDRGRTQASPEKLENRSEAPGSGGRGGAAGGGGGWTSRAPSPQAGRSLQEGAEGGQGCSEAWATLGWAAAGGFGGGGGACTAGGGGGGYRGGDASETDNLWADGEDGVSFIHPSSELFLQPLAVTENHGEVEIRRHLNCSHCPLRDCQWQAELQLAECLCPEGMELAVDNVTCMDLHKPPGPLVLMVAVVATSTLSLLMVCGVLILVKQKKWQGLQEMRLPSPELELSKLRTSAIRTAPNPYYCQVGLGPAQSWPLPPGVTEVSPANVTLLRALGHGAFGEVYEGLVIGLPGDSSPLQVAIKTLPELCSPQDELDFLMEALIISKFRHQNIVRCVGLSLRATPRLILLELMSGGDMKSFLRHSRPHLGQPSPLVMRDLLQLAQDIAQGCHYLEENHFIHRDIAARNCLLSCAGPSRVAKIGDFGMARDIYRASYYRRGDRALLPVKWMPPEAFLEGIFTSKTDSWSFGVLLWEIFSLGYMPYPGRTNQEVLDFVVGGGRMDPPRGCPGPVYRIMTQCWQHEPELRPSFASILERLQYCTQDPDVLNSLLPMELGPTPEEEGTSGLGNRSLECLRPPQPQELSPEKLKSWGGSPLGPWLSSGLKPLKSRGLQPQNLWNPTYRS
UniProt Q9ULW8, sequence (whole entry, looked up): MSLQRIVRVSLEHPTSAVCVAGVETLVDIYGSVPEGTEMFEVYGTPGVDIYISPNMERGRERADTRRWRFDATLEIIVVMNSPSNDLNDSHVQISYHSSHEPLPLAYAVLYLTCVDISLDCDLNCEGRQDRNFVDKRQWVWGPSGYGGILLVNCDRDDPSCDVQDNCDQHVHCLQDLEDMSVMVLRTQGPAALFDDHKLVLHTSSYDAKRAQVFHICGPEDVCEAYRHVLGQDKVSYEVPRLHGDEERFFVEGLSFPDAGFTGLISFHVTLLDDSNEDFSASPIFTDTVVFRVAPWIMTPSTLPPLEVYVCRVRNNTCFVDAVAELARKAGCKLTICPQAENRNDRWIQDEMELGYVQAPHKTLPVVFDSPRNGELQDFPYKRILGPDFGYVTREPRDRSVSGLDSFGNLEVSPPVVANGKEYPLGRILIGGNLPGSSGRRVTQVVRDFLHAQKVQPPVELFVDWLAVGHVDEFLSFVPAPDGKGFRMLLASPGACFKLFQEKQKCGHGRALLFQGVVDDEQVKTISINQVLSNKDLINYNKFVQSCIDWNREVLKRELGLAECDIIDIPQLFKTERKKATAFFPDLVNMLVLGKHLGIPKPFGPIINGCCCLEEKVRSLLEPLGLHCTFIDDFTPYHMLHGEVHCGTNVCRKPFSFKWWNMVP
UniProt C6WFL3, sequence (whole entry, looked up): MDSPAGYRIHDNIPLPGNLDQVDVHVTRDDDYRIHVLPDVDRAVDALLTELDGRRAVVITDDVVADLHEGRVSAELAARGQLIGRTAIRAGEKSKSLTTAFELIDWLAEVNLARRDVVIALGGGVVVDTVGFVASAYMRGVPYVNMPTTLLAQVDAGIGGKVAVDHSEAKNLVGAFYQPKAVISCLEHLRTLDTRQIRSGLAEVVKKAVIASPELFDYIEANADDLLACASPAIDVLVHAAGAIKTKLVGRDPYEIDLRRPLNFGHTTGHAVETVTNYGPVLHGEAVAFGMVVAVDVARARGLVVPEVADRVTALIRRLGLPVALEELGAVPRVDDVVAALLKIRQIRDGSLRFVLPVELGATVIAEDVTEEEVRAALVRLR
UniProt Q14994, sequence (whole entry, looked up): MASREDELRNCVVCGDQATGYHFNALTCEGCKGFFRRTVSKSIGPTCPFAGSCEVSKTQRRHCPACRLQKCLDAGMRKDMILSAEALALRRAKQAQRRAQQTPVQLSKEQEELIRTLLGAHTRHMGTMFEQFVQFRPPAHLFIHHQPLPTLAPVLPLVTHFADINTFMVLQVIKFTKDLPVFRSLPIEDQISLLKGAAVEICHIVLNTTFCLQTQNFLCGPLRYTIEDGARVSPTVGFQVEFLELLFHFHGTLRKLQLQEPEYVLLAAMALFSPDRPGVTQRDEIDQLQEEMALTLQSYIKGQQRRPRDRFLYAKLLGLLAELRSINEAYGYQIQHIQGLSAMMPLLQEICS
UniProt P27361, sequence (whole entry, looked up): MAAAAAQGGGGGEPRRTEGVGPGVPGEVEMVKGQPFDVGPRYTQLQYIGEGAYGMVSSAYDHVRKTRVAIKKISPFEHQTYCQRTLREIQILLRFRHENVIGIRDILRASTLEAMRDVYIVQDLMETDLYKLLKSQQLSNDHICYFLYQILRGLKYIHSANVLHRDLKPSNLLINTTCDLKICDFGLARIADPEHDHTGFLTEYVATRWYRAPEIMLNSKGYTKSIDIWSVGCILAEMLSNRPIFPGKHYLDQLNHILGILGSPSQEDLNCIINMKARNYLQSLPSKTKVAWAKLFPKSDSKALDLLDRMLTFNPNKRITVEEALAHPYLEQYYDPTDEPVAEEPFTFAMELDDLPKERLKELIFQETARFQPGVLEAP
UniProt P13945, sequence (whole entry, looked up): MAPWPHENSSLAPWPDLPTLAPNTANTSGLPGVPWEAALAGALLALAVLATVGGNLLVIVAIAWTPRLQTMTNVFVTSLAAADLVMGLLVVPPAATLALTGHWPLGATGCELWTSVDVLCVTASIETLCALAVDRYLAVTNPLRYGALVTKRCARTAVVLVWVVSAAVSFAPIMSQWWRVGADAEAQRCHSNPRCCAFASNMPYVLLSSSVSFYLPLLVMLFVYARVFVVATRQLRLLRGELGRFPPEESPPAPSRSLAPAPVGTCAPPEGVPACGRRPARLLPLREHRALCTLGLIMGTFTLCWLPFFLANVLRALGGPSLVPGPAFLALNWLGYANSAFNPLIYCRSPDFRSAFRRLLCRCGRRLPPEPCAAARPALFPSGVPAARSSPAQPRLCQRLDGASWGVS
UniProt Q13555, sequence (whole entry, looked up): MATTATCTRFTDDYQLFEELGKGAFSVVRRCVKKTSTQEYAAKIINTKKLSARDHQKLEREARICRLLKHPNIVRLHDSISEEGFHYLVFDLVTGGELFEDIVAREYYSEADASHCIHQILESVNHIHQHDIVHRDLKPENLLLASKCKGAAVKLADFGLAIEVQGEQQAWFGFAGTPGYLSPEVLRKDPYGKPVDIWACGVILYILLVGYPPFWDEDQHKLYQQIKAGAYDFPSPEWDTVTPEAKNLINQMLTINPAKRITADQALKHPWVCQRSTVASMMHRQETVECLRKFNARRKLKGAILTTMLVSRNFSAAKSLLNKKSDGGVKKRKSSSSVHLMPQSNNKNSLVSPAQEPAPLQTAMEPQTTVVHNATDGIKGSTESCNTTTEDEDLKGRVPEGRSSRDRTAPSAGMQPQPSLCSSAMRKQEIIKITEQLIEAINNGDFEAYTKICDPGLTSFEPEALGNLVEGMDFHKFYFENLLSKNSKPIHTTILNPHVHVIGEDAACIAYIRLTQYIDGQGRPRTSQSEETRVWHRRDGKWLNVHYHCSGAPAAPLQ
UniProt P15090, sequence (whole entry, looked up): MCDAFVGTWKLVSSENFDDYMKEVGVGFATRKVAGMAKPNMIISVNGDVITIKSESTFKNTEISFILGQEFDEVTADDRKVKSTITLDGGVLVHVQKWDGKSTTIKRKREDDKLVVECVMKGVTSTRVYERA

Compound | target | assay | system | conditions | scale | endpoint | value
O=P(O)(O)OC[C@H]1C[C@](O)(CO)[C@@H](O)[C@H](O)[C@@H]1O | 2-epi-valiolone synthase (Actinosynnema mirum, UniProt C6WFL3) | phosphate release |  | 150 µM |  | apparent Vmax | 1.9 ± 0.3 µM/min
CC(C)CC(=O)N[C@H](C(=O)N[C@H](C(=O)N[C@@H](CC(C)C)[C@@H](O)CC(=O)N[C@@H](C)C(=O)N[C@@H](CC(C)C)[C@@H](O)CC(=O)O)C(C)C)C(C)C | Cathepsin D (CTSD, Homo sapiens, UniProt P07339) |  |  |  |  | Hill slope | -5.06
O=C1c2ccccc2C(=O)C1c1ccccc1 | Nuclear receptor subfamily 1 group I member 3 (Homo sapiens, UniProt Q14994) |  | cells | concentration not given |  | activity | inactive
CC[C@H](C)[C@H](NC(=O)CNC(=O)[C@@H](N)CCCCN)C(=O)N[C@@H](CC(C)C)C(=O)N[C@@H](CCCCN)C(=O)N[C@@H](CC(N)=O)C(=O)N[C@@H](CCCNC(=N)N)C(=O)N[C@@H](C)C(=O)N[C@@H](CCCNC(=N)N)C(=O)N[C@@H](CCCNC(=N)N)C(=O)N[C@@H](CCC(=O)O)C(=O)N[C@@H](CCCNC(=N)N)C(=O)N1CCC[C@H]1C(=O)NCC(=O)N[C@@H](CCCCN)C(=O)N[C@@H](CCCNC(=N)N)C(=O)N[C@@H](CCCCN)C(=O)N[C@@H](CC(N)=O)C(=O)N[C@H](C(=O)N[C@@H](Cc1c[nH]cn1)C(=O)N[C@@H](Cc1c[nH]c2ccccc12)C(=O)N1CCC[C@H]1C(=O)N[C@@H](CCC(=O)O)C(=O)N[C@@H](CCC(=O)O)C(=O)NCC(=O)N[C@@H](CCCCN)C(=O)N[C@@H](CC(C)C)C(=O)N[C@@H](CCCNC(=N)N)C(=O)N[C@@H](CCC(=O)O)C(=O)N[C@@H](Cc1ccc(O)cc1)C(=O)N[C@@H](Cc1ccccc1)C(=O)N[C@@H](Cc1ccc(O)cc1)C(=O)N[C@@H](Cc1ccccc1)C(=O)N[C@@H](CCC(=O)O)C(=O)N[C@@H](CC(C)C)C(=O)N[C@@H](CC(=O)O)C(=O)N[C@@H](CCC(=O)O)C(=O)N[C@@H](C)C(=O)N[C@@H](CCC(=O)O)C(=O)N[C@@H](CCCNC(=N)N)C(=O)N[C@H](C(=O)N[C@@H](CC(N)=O)C(=O)N[C@H](C(=O)O)C(C)C)C(C)C)C(C)C | Serine/threonine-protein phosphatase PP1-alpha catalytic subunit (PPP1CA, Homo sapiens, UniProt P62136) | binding, isothermal titration calorimetry |  | concentration not given, 25 °C, PP1α residues 7-330 |  | entropy change ΔS | -78.7 ± 0.6 cal/mol/K
CC1(C)C(C=C(Cl)Cl)C1C(=O)OCc1cccc(Oc2ccccc2)c1 (centres unmarked) | uncharacterized protein | enzyme activity, inhibitor | Sf9 cell homogenate | 9.302 µM, 0.1667 h, with: α-naphthyl acetate substrate | relative to: no inhibitor | remaining activity | 96.2%
CCCCNC(=O)OCC#CI | Fatty acid-binding protein, adipocyte (FABP4, Homo sapiens, UniProt P15090) | binding, affinity selection mass spectrometry |  | 100 nM, pooled screen | relative to: other proteins | fold change | 18.4
O=C(Cc1cccs1)N[C@@H]1C(=O)N2C(C(=O)O)=C(/C=C/c3ccc([N+](=O)[O-])cc3[N+](=O)[O-])CS[C@H]12 | Metallo-beta-lactamase type 2 (blaNDM-1, Klebsiella pneumoniae, UniProt C7C422) | substrate, steady-state kinetics |  |  |  | kcat | 12.6 ± 0.7 s⁻¹
C[C@H]1CCC/C=C/[C@@H]2C[C@H](O)C[C@H]2[C@H](O)/C=C/C(=O)O1 | Protein transport protein Sec61 subunit alpha isoform 1 (Homo sapiens, UniProt P61619) | reporter gene, inhibitor, dual luciferase | HEK293 with SP-CD4-FLuc reporter | concentration not given |  | FLuc/RLuc ratio | 6.34 and 4.77 and 6.14 and 6.42
Cc1ccc(OP(=O)(Oc2ccc(C)cc2)Oc2ccc(C)cc2)cc1 | Acylamino-acid-releasing enzyme (Apeh, Mus musculus, UniProt Q8R146) |  | mouse | dose not given |  | enzyme activity | decreased
Nc1nc2c(ncn2[C@@H]2O[C@H](COP(=O)(O)OP(=O)(O)O[C@H]3O[C@H](CCO)C(=O)[C@@H](O)[C@@H]3O)[C@@H](O)[C@H]2O)c(=O)[nH]1 | C4-reductase HS:4, Campylobacter jejuni subsp. jejuni | substrate |  | pH 7.5, 25 °C, substrate formed in situ, with: C3-epimerase excess, NADPH 300 µM |  | Km | 40 ± 9 µM
CN(C(=O)n1cnc(-c2ccc[n+]([O-])c2)c1)C1CCCCC1 | Beta-3 adrenergic receptor (ADRB3, Homo sapiens, UniProt P13945) | radioligand binding |  | 10 µM |  | inhibition | 4%
CC(C)C[C@H](NC(=O)[C@H](Cc1ccccc1)NC(=O)[C@@H]1CCCN1C(=O)[C@H](CCCNC(=N)N)NC(=O)[C@H](CCC(=O)O)NC(=O)[C@@H]1CCCN1C(=O)[C@H](CO)NC(=O)[C@@H](N)CCC(=O)O)C(=O)O | Epithelial sodium channel subunit gamma (Homo sapiens, UniProt P51170) | binding, bio-layer interferometry |  |  |  | koff | 0.0223 s⁻¹
N[C@@H](Cc1c[nH]c2ccccc12)C(=O)O | Germin-like protein subfamily 3 member 1 (GLP1, Arabidopsis thaliana, UniProt P94040) | microscale thermophoresis | Arabidopsis protoplast extract | concentration not given |  | binding | no binding
C[C@H]1CN(c2n[nH]c3nc(N[C@H]4CC[C@H](NS(=O)(=O)CCC(F)(F)F)CC4)ncc23)CCO1 | Serine/threonine-protein kinase Chk1 (CHEK1, Homo sapiens, UniProt O14757) | inhibitor, Kinobeads competition profiling |  | 20 µM | relative to: vehicle | relative abundance | 1.09
CCn1c(-c2nc3cc(C(=O)N4CCC[C@@H](N)C4)cc(OC)c3n2C)cc2cccnc21 | Protein-arginine deiminase type-3 (PADI3, Homo sapiens, UniProt Q9ULW8) |  |  |  | relative to: Ki' PADI3 over Ki' PAD4 | selectivity ratio | 61
O=C(Nc1cnccc1Cl)N1CCN(Cc2ccc3c(c2)OC(F)(F)O3)CC1 | Prostaglandin E2 receptor EP1 subtype (PTGER1, Homo sapiens, UniProt P34995) | binding, measured: EP1 |  | 10 µM, human, with: [3H]prostaglandin E2 |  | inhibition | 13%
COc1cc(N)c(Cl)cc1C(=O)NC1CN2CCC1CC2 (centres unmarked) | Probable G-protein coupled receptor 148 (GPR148, Homo sapiens, UniProt Q8TDV2) | β-arrestin recruitment, TANGO luminescence, measured: GPR148 |  | concentration not given | relative to: basal luminescence | log2 fold change | 0.059
O=C(Nc1cccnn1)N1CCC(=Cc2cccc(Oc3ccc(C(F)(F)F)cn3)c2)CC1 | CCKAR | binding |  | 10 µM, with: [3H]L-364,718 |  | inhibition | -4%

Compound | target | assay | system | conditions | scale | endpoint | value
Cc1ncc(C)n2nc(/C=C/c3nc(N4CCCC4)cc(N4CCOCC4)n3)nc12 | NMDA receptor | binding |  | 10 µM |  | inhibition | -3%
COC(=O)[C@@]1(O)C[C@H]2O[C@]1(C)n1c3ccccc3c3c4c(c5c6ccccc6n2c5c31)C(=O)NC4 | Mitogen-activated protein kinase 3 (MAPK3, Homo sapiens, UniProt P27361) | ADP-Glo |  | 50 µM, with: substrate MBP |  | remaining activity | 115%
CC(C)[C@@H]1NC(=O)[C@H](C)OC(=O)[C@@H](C(C)C)NC(=O)[C@@H](C(C)C)OC(=O)[C@H](C(C)C)NC(=O)[C@H](C)OC(=O)[C@@H](C(C)C)NC(=O)[C@@H](C(C)C)OC(=O)[C@H](C(C)C)NC(=O)[C@H](C)OC(=O)[C@@H](C(C)C)NC(=O)[C@@H](C(C)C)OC1=O | Metalloendopeptidase OMA1, mitochondrial (OMA1, Homo sapiens, UniProt Q96E52) | protease activity |  | concentration not given, 15 min | relative to: untreated cells | Luke-S1 reporter signal | ~40%
CC(CCn1ccc(-c2ccc(-c3cnnn3Cc3ccccc3)cc2)cc1=O)(C(=O)NO)S(C)(=O)=O (centres unmarked) | UDP-3-O-acyl-N-acetylglucosamine deacetylase (Pseudomonas aeruginosa, UniProt P47205) | fluorescence |  | 37 °C |  | residence time | 9 min
CC1(C)[C@H](C(=O)O[C@H](C#N)c2cccc(Oc3ccccc3)c2)[C@@H]1C=C(Br)Br | uncharacterized protein | enzyme activity, inhibitor | Sf9 cell homogenate | 454.5 µM, 0.1667 h, with: α-naphthyl acetate substrate | relative to: no inhibitor | remaining activity | 100%
CCCCCCCCCCCCCC[N+](C)(C)C | Sodium channel protein type 4 alpha, BTX-activated (Oryctolagus cuniculus, UniProt G1SLL9) |  |  |  |  | k-1 | 14.5 s⁻¹
c1cncc([C@@H]2CCCN2)c1 | Chrnd/Chrna1/Chrne (Mus musculus, UniProt P02716+P04756+P20782, G173K/S470W) | single-channel kinetics |  | K chain side site |  | kon | 1.9e+09 M⁻¹ s⁻¹
CN[C@@H]1C[C@H]2O[C@@](C)([C@@H]1OC)n1c3ccccc3c3c4c(c5c6ccccc6n2c5c31)C(=O)NC4 | Proto-oncogene tyrosine-protein kinase Src (SRC, Homo sapiens, UniProt P12931) | binder, NanoLuc thermal shift | permeabilized HeLa, Nluc fusion |  |  | ΔTm | -0.1 °C
CCN(CC)CCCC[C@H](NC(=O)[C@H](CC(C)C)NC(=O)[C@H](C)NC(=O)[C@H](Cc1ccccc1)NC(=O)c1ccc(C(C)(C)C)cc1)C(=O)N[C@@H](CO)C(=O)OC | D(1A) dopamine receptor (DRD1, Homo sapiens, UniProt P21728) | antagonist, radioligand binding |  | 10 µM | relative to: control binding | specific binding | 95.7%
CN1CCN(c2cc(-c3ccncc3)c(-c3ccc4ccccc4c3)nn2)CC1 | CCKAR | agonist, FLIPR |  | 12.5 µM |  | activation | -0.6%
NC[C@H](NC(=O)c1ccc(-c2ccc(Br)cc2)cc1)C(=O)NO | UDP-3-O-acyl-N-acetylglucosamine deacetylase (Pseudomonas aeruginosa, UniProt P47205, C40S) | ITC |  | concentration not given, 298 K |  | -TΔS of binding | -10.2 kcal/mol
[2H]c1c([2H])c([C@]2([2H])CCCN2C(=O)C(C)(C)Oc2ccc3cn[nH]c3c2)c([2H])c([2H])c1C([2H])([2H])[2H] | Leukocyte tyrosine kinase receptor (LTK, Homo sapiens, UniProt P29376) | KINOMEscan |  | 1 µM | relative to: DMSO control | remaining binding | 81%
COc1ccc(N2C(=O)N(c3c(C)cccc3Cl)Cc3cnc(Nc4ccc(C5CCN(C)CC5)cc4OC)nc32)nc1 | Calcium/calmodulin-dependent protein kinase type II subunit gamma (CAMK2G, Homo sapiens, UniProt Q13555) | kinase activity |  | 0.5 µM |  | inhibition | 9%
Nc1nc2c(ncn2[C@@H]2O[C@@H]3COP(=O)(O)O[C@H]4[C@@H](O)[C@H](n5cnc6c(=O)[nH]c(N)nc65)O[C@@H]4COP(=O)(O)O[C@H]3[C@H]2O)c(=O)[nH]1 | Cell cycle histidine kinase CckA, G318A; cytoplasmic region (Caulobacter vibrioides, UniProt Q9X688, G318A) | binding, ITC |  | with: ADP 5 mM |  | association constant | 29200 ± 4410 M⁻¹
O=C(c1ccc(Cl)cc1)N1CCN2C(=O)N(OC(=O)N3CCOc4ccccc43)C(=O)C2C1 (centres unmarked) | Proteasome Macropain subunit (Homo sapiens, UniProt P49721) | MS-based ABPP | SW-620 conditioned medium | 10 µM | relative to: compound over DMSO, lower = more inhibition | mean protein ratio | 1.03
NCCO | eutB/eutC (Salmonella typhimurium, UniProt P19264+P19265) | substrate, NADH-coupled | Salmonella enterica |  |  | Km | 31.4 ± 5.7 µM
O=C(O)COP(=O)(O)O | TPI1 (Saccharomyces cerevisiae, UniProt P00942, Y208S) | enzyme activity, competitive inhibitor, GPDH/NADH-coupled |  | pH 8.9, 25 °C, ionic strength 0.1 NaCl, with: glyceraldehyde 3-phosphate substrate | relative to: mutant over wild type | Ki ratio | 28
